Measured values pooled from the literature.
Each line is one published result; not all experiments were run side by side. Numbers after ± are the reported error.
Isochorismatase domain-containing protein 1: Isochorismatase domain-containing protein 1 (Homo sapiens, UniProt Q96CN7)
Chain of UniProt Q96CN7 (whole entry, looked up): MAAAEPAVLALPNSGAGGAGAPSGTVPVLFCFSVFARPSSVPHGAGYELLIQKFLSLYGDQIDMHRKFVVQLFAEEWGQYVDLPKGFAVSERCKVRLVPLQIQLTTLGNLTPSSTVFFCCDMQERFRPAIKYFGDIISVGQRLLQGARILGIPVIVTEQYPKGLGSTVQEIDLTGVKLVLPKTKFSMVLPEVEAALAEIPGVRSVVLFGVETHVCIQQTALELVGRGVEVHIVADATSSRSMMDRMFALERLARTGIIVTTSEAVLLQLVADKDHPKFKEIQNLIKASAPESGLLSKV
CTSD: Cathepsin D (CTSD, Homo sapiens, UniProt P07339)
Chain of UniProt P07339 (whole entry, looked up): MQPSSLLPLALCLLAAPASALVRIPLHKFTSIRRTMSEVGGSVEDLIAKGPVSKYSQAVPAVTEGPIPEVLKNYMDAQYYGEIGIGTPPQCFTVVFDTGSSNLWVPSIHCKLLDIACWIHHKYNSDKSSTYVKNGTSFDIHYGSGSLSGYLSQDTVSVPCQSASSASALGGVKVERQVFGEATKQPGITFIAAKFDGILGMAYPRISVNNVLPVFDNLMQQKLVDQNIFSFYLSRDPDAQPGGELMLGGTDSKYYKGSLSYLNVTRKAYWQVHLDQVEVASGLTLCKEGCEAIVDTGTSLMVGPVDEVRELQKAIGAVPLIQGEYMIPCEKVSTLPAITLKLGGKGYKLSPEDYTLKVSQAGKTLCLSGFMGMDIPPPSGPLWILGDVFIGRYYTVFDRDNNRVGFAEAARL
Chain of UniProt O00478 (whole entry, unmodified, looked up): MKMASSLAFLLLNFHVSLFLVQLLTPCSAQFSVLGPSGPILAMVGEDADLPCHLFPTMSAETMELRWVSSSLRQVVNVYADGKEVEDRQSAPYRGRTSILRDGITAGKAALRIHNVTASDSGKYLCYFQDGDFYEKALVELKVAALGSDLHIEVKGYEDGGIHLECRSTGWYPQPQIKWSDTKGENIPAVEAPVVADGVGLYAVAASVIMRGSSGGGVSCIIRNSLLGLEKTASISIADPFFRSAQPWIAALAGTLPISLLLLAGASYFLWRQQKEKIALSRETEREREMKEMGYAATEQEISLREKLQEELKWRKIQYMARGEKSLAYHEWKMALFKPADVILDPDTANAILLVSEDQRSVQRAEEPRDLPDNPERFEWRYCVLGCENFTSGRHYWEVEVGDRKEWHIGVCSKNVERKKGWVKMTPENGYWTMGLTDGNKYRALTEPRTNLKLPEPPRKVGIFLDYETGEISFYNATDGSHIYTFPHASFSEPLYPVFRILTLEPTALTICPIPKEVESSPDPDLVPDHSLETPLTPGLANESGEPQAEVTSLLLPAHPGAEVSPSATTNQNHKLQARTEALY
Chain of UniProt Q9H6E5 (whole entry, looked up): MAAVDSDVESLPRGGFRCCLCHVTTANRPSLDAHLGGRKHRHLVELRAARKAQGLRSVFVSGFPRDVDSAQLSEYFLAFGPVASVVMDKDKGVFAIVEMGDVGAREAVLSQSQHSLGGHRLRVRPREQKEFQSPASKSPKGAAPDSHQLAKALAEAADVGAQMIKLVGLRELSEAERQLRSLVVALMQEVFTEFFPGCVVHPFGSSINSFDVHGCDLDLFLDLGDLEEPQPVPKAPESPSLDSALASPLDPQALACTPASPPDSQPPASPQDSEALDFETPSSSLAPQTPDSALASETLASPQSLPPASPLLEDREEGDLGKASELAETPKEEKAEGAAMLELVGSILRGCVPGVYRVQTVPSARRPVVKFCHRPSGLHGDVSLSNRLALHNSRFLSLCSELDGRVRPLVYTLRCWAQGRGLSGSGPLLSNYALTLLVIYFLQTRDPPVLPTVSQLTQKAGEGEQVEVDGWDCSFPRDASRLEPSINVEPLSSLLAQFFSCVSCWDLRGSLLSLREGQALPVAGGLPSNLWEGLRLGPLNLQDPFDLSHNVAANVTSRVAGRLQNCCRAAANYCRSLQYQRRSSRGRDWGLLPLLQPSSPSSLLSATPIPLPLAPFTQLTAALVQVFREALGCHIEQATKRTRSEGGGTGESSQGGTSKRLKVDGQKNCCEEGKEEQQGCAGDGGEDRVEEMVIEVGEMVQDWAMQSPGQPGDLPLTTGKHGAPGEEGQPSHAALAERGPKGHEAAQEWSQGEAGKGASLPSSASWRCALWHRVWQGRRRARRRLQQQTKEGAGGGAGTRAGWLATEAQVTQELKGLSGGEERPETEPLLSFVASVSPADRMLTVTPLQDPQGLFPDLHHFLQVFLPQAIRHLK
Chain of UniProt P83111 (whole entry, looked up): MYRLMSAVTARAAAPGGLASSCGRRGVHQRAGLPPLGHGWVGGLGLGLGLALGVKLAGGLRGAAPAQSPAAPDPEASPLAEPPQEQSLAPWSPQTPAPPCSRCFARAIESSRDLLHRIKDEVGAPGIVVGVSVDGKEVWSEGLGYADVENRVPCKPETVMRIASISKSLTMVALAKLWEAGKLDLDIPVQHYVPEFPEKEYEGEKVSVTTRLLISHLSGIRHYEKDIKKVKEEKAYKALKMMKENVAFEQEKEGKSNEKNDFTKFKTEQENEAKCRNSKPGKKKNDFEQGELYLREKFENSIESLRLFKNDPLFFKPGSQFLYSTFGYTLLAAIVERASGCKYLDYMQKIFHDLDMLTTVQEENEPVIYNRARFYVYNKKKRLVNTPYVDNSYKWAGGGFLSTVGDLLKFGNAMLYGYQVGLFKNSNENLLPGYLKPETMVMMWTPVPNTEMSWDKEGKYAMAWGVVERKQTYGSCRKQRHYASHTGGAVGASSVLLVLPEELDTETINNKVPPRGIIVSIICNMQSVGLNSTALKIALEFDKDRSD
Chain of UniProt Q9UBX5 (whole entry, looked up): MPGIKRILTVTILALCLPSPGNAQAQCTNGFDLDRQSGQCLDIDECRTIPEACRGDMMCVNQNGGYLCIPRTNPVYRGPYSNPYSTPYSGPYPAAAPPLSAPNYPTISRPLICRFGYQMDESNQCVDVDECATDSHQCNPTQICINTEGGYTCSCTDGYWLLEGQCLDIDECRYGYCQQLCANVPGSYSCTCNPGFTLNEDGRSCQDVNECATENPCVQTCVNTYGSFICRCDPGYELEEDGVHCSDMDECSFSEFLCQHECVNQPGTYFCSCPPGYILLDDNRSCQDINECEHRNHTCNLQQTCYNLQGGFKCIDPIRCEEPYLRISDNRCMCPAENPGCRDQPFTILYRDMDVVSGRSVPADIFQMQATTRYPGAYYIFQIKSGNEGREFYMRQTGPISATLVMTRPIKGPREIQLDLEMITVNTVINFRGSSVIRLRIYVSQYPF
Chain of UniProt Q16774 (whole entry, unmodified, looked up): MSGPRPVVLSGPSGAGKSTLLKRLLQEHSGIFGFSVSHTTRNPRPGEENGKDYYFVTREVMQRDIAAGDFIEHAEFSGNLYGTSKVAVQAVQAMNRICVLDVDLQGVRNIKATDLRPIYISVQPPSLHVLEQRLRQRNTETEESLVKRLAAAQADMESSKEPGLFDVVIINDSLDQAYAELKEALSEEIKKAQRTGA
Chain of UniProt P21673 (whole entry, looked up): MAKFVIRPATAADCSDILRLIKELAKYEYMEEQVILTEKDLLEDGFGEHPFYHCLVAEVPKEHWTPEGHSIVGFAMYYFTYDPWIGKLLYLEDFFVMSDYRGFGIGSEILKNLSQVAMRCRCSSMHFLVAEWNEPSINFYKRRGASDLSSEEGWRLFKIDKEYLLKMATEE
Chain of UniProt P43298 (whole entry, looked up): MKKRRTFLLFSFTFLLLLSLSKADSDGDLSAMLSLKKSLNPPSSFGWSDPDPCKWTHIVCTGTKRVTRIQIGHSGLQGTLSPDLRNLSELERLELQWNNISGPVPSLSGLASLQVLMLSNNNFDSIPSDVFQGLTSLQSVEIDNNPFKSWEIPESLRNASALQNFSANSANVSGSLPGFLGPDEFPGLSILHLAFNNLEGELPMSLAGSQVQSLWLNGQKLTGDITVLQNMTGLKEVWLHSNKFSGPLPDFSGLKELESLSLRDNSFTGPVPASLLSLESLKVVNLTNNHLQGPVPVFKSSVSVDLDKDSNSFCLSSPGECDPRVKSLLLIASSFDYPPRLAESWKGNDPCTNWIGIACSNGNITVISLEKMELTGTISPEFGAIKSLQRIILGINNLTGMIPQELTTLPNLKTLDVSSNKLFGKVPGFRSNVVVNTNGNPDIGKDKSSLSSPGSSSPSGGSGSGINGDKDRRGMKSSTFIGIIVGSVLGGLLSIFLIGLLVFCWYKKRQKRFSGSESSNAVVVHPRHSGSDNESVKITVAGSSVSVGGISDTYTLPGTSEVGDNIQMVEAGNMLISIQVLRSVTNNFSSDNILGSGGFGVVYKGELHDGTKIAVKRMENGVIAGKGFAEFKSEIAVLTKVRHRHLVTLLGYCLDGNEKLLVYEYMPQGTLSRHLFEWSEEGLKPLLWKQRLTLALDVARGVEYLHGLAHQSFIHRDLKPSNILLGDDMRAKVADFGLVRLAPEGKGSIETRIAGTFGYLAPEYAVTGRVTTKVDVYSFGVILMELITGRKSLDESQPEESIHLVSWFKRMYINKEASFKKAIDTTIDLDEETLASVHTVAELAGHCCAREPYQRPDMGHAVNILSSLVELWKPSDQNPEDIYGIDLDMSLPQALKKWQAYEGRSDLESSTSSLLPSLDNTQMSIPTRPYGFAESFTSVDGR
Chain of UniProt P16442 (whole entry, unmodified, looked up): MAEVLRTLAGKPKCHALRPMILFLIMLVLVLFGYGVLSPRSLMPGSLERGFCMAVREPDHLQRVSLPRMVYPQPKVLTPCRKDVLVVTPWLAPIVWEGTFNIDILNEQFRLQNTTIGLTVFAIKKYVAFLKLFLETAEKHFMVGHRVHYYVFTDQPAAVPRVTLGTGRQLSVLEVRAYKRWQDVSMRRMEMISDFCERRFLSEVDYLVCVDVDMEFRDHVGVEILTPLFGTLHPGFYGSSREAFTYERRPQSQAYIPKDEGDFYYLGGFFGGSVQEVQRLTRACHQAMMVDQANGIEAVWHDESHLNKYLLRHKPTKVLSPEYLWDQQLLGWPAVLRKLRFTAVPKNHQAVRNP
Chain of UniProt P12710 (whole entry, looked up): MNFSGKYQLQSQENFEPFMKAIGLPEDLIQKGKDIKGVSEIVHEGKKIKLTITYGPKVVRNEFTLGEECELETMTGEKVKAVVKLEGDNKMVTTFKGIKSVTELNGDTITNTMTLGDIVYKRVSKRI

SMILES | target | test | test system | setting | Kd
O=C(O)Cc1c[nH]c2ccccc12 | TMK1/GLP1, extracellular domain (Arabidopsis thaliana, UniProt P43298+P94040) | binding, microscale thermophoresis | – | – | 0.525 µM
CC(C)C[C@H](NC(=O)[C@H](CCCNC(=N)N)NC(=O)[C@@H](NC(=O)[C@H](CC(C)C)NC(=O)[C@H](Cc1ccccc1)NC(=O)[C@H](CC(N)=O)NC(=O)[C@H](C)NC(=O)CCCCCNC(=S)Nc1ccc2c(c1)C(=O)OC21c2ccc(O)cc2Oc2cc(O)ccc21)C(C)C)C(=O)N[C@@H](CCC(N)=O)C(=O)N[C@H](C(=O)N[C@@H](Cc1ccc(O)cc1)C(=O)N1CCC[C@H]1C(=O)N[C@@H](CCCNC(=N)N)C(=O)N[C@H](C(=O)N[C@@H](CC(N)=O)C(=O)N[C@H](C(=O)NCC(=O)N[C@@H](C)C(=O)N[C@@H](CC(N)=O)C(=O)N[C@H](C(=O)N[C@@H](Cc1ccc(O)cc1)C(N)=O)[C@@H](C)O)C(C)C)[C@@H](C)O)[C@@H](C)O | Amylin receptor AMY2; CALCR/RAMP2, extracellular domains (Homo sapiens, UniProt O60895+P30988) | peptide binding, fluorescence polarization | – | pH 7.4, MBP-CTR ECD with 100 µM RAMP2 ECD | 1.62 µM
Cc1ccc(S(=O)(=O)Oc2ccc(/C=N/Nc3ccc(C(=O)O)cc3)cc2CN(C)N)cc1 | 5-hydroxytryptamine receptor 1E (HTR1E, Homo sapiens, UniProt P28566) | dynamic mass redistribution | HEK293 expressing HTR1E | – | 0.00138 ± 0.0002 µM
CC(C)(COP(=O)(O)OP(=O)(O)OC[C@H]1O[C@@H](n2cnc3c(N)ncnc32)[C@H](O)[C@@H]1OP(=O)(O)O)[C@@H](O)C(=O)NCCC(=O)NCCS | Diamine acetyltransferase 1 (Homo sapiens, UniProt P21673) | competitor, competition MS pulldown | SW-620 cell lysate | with: photo-immobilized beads | 2.67 µM
Cc1cc(Nc2cc3ncccc3c(N[C@@H]3C[C@H]4CC[C@@H](C3)N4CCC#N)n2)n[nH]1 | Mitogen-activated protein kinase kinase kinase 9 (MAP3K9, Homo sapiens, UniProt P80192) | binding, KINOMEscan | – | – | 0.054 µM
Nc1cc(F)ccc1NC(=O)c1ccc(CNC(=O)/C=C/c2cccnc2)cc1 | Isochorismatase domain-containing protein 1 | inhibitor, competition pulldown | SW620 and MV4-11 lysate | 1 h | > 30.2 µM
CC(C)CC(=O)N[C@H](C(=O)N[C@H](C(=O)N[C@@H](CC(C)C)[C@@H](O)CC(=O)N[C@@H](C)C(=O)N[C@@H](CC(C)C)[C@@H](O)CC(N)=O)C(C)C)C(C)C | CTSD | binding, surface plasmon resonance | – | – | 0.724 µM
COc1ccc(F)cc1C(=O)NCc1ccc(-c2nn([C@@H](C)C(F)(F)F)c(N)c2C(N)=O)cc1 | Tyrosine-protein kinase BTK (BTK, Homo sapiens, UniProt Q06187) | surface plasmon resonance | – | – | 0.001 µM
CN1CCc2c(c3ccccc3n2Cc2ccc(C(=O)NO)cc2)C1 | Isochorismatase domain-containing protein 1 | inhibitor, competition pulldown | SW620 and MV4-11 lysate | 1 h | > 30.2 µM
CCCN1CCN(c2ccc(-c3cncc(Cl)c3N3CCC4(CCNC4=O)CC3)cc2)CC1 | LACTB (Homo sapiens, UniProt P83111) | SILAC displacement | LS174T-L5 cell lysate | – | 15.6 µM
Nc1nc2c(ncn2[C@@H]2O[C@H](COP(=O)(O)O)[C@@H](O)[C@H]2O)c(=O)[nH]1 | GUK1 (Homo sapiens, UniProt Q16774, Y81A) | binding, ITC | – | 25 °C, with: GMP | > 500 µM
Nc1nc2c(ncn2[C@@H]2O[C@@H]3COP(=O)(O)O[C@H]4[C@@H](O)[C@H](n5cnc6c(=O)[nH]c(N)nc65)O[C@@H]4COP(=O)(O)O[C@H]3[C@H]2O)c(=O)[nH]1 | Cell cycle histidine kinase CckA, CA domain (Caulobacter vibrioides, UniProt Q9X688) | isothermal titration calorimetry | Caulobacter crescentus | 12 °C, with: ADP 5 mM | 22 µM
Cc1ncc(C[n+]2csc(CCO)c2C)c(N)n1 | unknown protein (Thermotoga maritima, UniProt Q9WYV6) | isothermal titration calorimetry | – | pH 6, 25 °C | 1.58 µM
Cc1cc2nc3c(=O)[nH]c(=O)nc-3n(C[C@H](O)[C@H](O)[C@H](O)COP(=O)(O)OP(=O)(O)OC[C@H]3O[C@@H](n4cnc5c(N)ncnc54)[C@H](O)[C@@H]3O)c2cc1C | Fibulin-5 (FBLN5, Homo sapiens, UniProt Q9UBX5) | binding, MS pulldown competition | SW-620 cell lysate | – | 4.74 µM
CC(C)(Oc1ccc(C(=O)c2ccc(Cl)cc2)cc1)C(=O)O | Fatty acid-binding protein, liver (Mus musculus, UniProt P12710) | native MS | mouse liver sample, 2-fold diluted | charge state 7+ | 41.5 ± 6.1 µM
C/C(=C\COP(=O)(O)OP(=O)(O)O)CO | Butyrophilin subfamily 3 member A3 (BTN3A3, Homo sapiens, UniProt O00478, R381H) | – | – | – | 0.78 µM

SMILES | target | test | test system | setting | Kd
O=C(CCCCCCC(=O)Nc1ccc([C@H]2O[C@@H](CSc3nc(-c4ccccc4)c(-c4ccccc4)o3)C[C@@H](c3ccc(CO)cc3)O2)cc1)NO | Isochorismatase domain-containing protein 1 | inhibitor, competition pulldown | SW620 and MV4-11 lysate | 1 h | > 30.2 µM
O=c1ccn([C@@H]2O[C@H](COP(=O)(O)OP(=O)(O)O)[C@@H](O)[C@H]2O)c(=O)[nH]1 | Histo-blood group ABO system transferase (ABO, Homo sapiens, UniProt P16442, G235S/G268A/L266M/R176G/W181E) | methyl-TROSY NMR titration lineshape | – | mutant presaturated with H-disaccharide | 499 ± 4 µM
Cn1cc(-c2ccc(S(=O)(=O)n3ccc(/C=C/C(=O)Nc4ccccc4N)c3)cc2)cn1 | Isochorismatase domain-containing protein 1 | inhibitor, competition pulldown | SW620 and MV4-11 lysate | 1 h | > 30.2 µM
[H]/N=C(/N)NCC(=O)O | Sodium- and chloride-dependent taurine transporter (SLC6A6, Homo sapiens, UniProt P31641, Y138A) | microscale thermophoresis | – | Y138A mutant | no binding
O=C(/C=C/c1ccc(CN(CCO)CCc2c[nH]c3ccccc23)cc1)NO | Isochorismatase domain-containing protein 1 | inhibitor, competition pulldown | SW620 and MV4-11 lysate | 1 h | > 30.2 µM
CC(=N)N | acetylcholine receptor, Rana temporaria | channel block, voltage clamp fluctuation | endplate | pure and Na+ mixture | ~18000 µM
O=C(CCCCCCNC(=O)c1cnc(N(c2ccccc2)c2ccccc2)nc1)NO | Isochorismatase domain-containing protein 1 | inhibitor, competition pulldown | SW620 and MV4-11 lysate | 1 h | 1.04 µM
[Ca+2].[Cl-].[Cl-] | mutant huntingtin exon 1 | calmodulin binding disruption, AlphaScreen | – | – | 2 ± 0.4 µM
O=C(N[C@H]1COC(=O)[C@@H](NC(=O)c2cccc(O)c2[O-])COC(=O)[C@@H](NC(=O)c2cccc(O)c2[O-])COC1=O)c1cccc(O)c1[O-].[Fe+3] | uncharacterized protein (Bordetella pertussis, UniProt Q7VXW9) | siderophore binding, fluorescence quenching titration | – | pH 6.5, room temperature, 100 mM NaCl, with: ferric siderophore | ~1 µM
CC(C)CC(=O)N[C@H](C(=O)N[C@H](C(=O)N[C@@H](CC(C)C)[C@@H](O)CC(=O)N[C@@H](C)C(=O)N[C@@H](CC(C)C)[C@@H](O)CC(=O)NCCCC[C@H](NC(=O)CCOCCOCCNC(=O)CN1CCN(CC(=O)O)CCN(CC(=O)O)CC1)C(=O)O)C(C)C)C(C)C | CTSD | binding, SPR | – | – | 0.65 µM
CC[C@H](C)[C@H](NC(=O)[C@H](CC(C)C)NC(=O)[C@H](Cc1ccc(OP(=O)(O)O)cc1)NC(=O)[C@H](CCC(=O)O)NC(=O)[C@H](CC(=O)O)NC(=O)[C@H](C)NC(=O)[C@H](CC(=O)O)NC(=O)[C@@H](NC(=O)[C@@H](NC(=O)[C@H](CC(=O)O)NC(=O)[C@H](CC(=O)O)NC(=O)[C@H](CCSC)NC(=O)c1ccc2c(c1)C(=O)OC21c2ccc(N(C)C)cc2Oc2cc(N(C)C)ccc21)C(C)C)C(C)C)C(=O)N1CCC[C@H]1C(=O)N[C@@H](CCC(N)=O)C(=O)N[C@@H](CCC(N)=O)C(=O)NCC(=O)N[C@@H](Cc1ccccc1)C(=O)N[C@@H](CC(=O)O)C(=O)O | Tyrosine-protein kinase JAK2, SH2 domain (JAK2, Homo sapiens, UniProt O60674) | binding | – | – | 1.94 µM
Nc1ccccc1NC(=O)c1ccc(CNC(=O)OCc2cccnc2)cc1 | Isochorismatase domain-containing protein 1 | inhibitor, competition pulldown | SW620 and MV4-11 lysate | 1 h | > 30.2 µM
N[C@@H](Cc1c[nH]cn1)C(=O)O | acetylcholine receptor, Rana temporaria | channel block, voltage clamp fluctuation | endplate | reduced Na+ mixture, voltage-dependent | ~15000 µM
CCCC(CCC)C(=O)O | Isochorismatase domain-containing protein 1 | inhibitor, competition pulldown | SW620 and MV4-11 lysate | 1 h | > 3020 µM
CCCCCCCCCCCCCCCC(=O)OC[C@H](COP(=O)(O)O[C@H]1[C@H](O)[C@@H](OP(=O)(O)O)[C@H](OP(=O)(O)O)[C@@H](OP(=O)(O)O)[C@H]1O)OC(=O)CCCCCCCCCCCCCCC | TUT1 (Homo sapiens, UniProt Q9H6E5) | binding | – | – | 0.11 ± 0.026 µM
